Measurements from different studies.
Parts stem from different laboratories: compare values within a part only. Positions count from the first letter of the parent shown.

Block 1
Target: RING finger protein unkempt homolog, zinc fingers 1-6, GST-SBP tag (UNK, Homo sapiens, UniProt Q9C0B0, residues 30-357)
Method: RNA Bind-n-Seq
Form: RNA
Medium: in vitro
Concentration: not given
Setting: RNA with constant flanks, human and mouse sites, ends assumed
Reference: input RNA pool
Direction: higher = stronger binding
Construct (chain): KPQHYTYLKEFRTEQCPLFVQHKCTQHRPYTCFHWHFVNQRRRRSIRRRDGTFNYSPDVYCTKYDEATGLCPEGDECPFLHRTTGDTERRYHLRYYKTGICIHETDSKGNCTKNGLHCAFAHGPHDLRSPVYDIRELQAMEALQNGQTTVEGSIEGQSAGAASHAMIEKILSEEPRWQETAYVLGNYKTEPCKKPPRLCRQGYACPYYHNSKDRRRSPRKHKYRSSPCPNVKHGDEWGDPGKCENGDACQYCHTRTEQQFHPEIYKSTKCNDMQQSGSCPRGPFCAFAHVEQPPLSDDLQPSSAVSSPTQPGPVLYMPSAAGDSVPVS
The bound/input enrichment of `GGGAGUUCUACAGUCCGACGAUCCUUUGCGAGCAGAAACGGGAGACCUGUGCAGAUGGUGAGGCAGCAGGCUGCACUAUCAACAAUAGCCUAUCCAACAUCCAGUGGCUUCGAAAGAUGAGUUCUGAUGGACUGGGCUCCCGCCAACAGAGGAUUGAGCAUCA` is reported as 0.0772 ratio.
The bound/input enrichment of `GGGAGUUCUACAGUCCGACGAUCGAUGUUAGAGAUGUGGUUGGGCGGCCUAUAGAUCCAAGAGAAGGUCCUGGACGGCCUCCACUAGAUGGUAGGGAUCAUUUUGGAAGACCUCCUGUAGAUAUAAGAGAGAAUCUUGUGAGGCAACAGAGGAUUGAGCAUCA` is reported as 3.88 ratio.
`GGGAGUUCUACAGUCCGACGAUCAUCUUACUCACAGAACCUCCUAUGAACCCAACCAAAAACAGAGAGAAGAUUGUAGAGGUAAUGUUUGAAACUUACCAGUUUUCCGGUGUAUAUGUAGCCAUCCAGGCAGUUCUGACUUUGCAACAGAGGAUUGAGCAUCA` gave a bound/input enrichment of 0.327 ratio.
`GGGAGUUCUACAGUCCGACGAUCUGCUAACACUAGACAAAAAUCAACUGUAUUUGUAAAAAUUUACCUCAAACCAUUUAAUUUUAUAGUGUGAUUAAUCCCAGGGCAUUUGGUAUGAACCAAAGUGCAUUCCUUUUAUAUGUGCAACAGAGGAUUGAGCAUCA` gave a bound/input enrichment of 0.788 ratio.
`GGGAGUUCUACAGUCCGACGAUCAGCACAACACCAGCUAAGCUCAGGAACCCUUGCACAAGUGAACAGAACUGCACCAGCCCAUUUAGCUACAAAAAUGUGCUCAGUCUUACUAAUAAAGGAGAAGUAUUUAAUGAACUUGUUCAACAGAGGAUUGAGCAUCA` has a bound/input enrichment of 1.8 ratio.
For `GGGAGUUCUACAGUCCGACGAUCUUCUCCACUUUUUAUUGAUGAUUUAAAACACUCUAGUCUUCCCCUCAAAUCAUGCAUGCAAAUAGGAGGACAGUGGUGGUGACUCAACUGGAUACAGGUGCUCAAUAGUCAGGCUUGAUACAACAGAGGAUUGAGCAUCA`, the bound/input enrichment was 0.484 ratio.
With `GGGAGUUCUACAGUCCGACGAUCCCAUCAGCUUCUGAAGUUCCCGAUAAUAGGGCAUCUGAAGCUUCUCAGGGAUUUCGAUUUCUUAGGCGAAGAUGGGGUUUGUCAUCUCUUAGCCACAAUCAUAGCUCUGAGUCAGAUUCACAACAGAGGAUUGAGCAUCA` the bound/input enrichment was 0.195 ratio.
The bound/input enrichment of `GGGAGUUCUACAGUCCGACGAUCAGGGAUGGCCCCCAAUCCCACCUCUGUUUAUUCUGUAAACUGCAACCUAUAAAUAACCUUUAGCAUUCCUAUUGUAACAAAAUUAAUUUUUAUGAAAUAAAUUAUAUUUCCUAGUCUAAUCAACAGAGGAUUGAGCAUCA` is reported as 256 ratio.

Block 2
Target: RNA binding protein fox-1 homolog 2, RRM domain, GST-SBP tag (RBFOX2, Homo sapiens, UniProt O43251-10, residues 100-194)
Method: RNA Bind-n-Seq
Form: RNA
Medium: in vitro
Concentration: 365 nM
Setting: natural RNA segment, single round, ends assumed
Reference: no-protein control
Direction: higher = stronger binding
Residues (chain): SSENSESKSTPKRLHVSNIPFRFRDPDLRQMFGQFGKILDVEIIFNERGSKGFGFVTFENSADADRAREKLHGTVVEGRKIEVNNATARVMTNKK
Under “RBNS enrichment (R)”, `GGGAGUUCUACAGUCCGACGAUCUGAUAAAGAAAAUGAUAAAUUUUCUGUUGUGCAUUCAAUUCUUAUUUUAAAUAAGACUAAGUAUAGGCAUUGUACCUGACAUUGCUACGUUUCUACCAGUGUUUCAAUUUUGGAAUUCUCGGGUGCCAA` is recorded as 0.582.
`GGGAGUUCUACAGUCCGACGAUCUAAGACAGACACCUUGGAACUUUCAUUCGGAAAUUAGUCCCCGAAGUUUGAGAUAAGUCUUUUUUUGAAUUUUUUUUUCUCUGAUCUGCUUAAAAUGCAGAUUGGCUUUAUGGAAUUCUCGGGUGCCAA`: “RBNS enrichment (R)” 0.403.
For `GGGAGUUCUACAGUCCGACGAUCAAAUUACUAAGCUUUUCCCAUAUGUUCUCGUACUUUCUCAAAUCCCUAUAAAGAAUUACUUGUUAUCUAUUAAAAAUCUCCUUUACCCAAAUCUGUAUUAUGGUUUCGCCUGGAAUUCUCGGGUGCCAA`, “RBNS enrichment (R)” read 1.55.
`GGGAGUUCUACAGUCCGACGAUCUAUUACUAUUUAUUGUUAAUAUCAUGGUCAUCUGAAGUUAAGUACUGGGAUAUAUUUUUCUAAUUUCUAGUGAUCUUAGUAUGCAUAUUUUUUUCUAACCUUUCAAAAGUUGGAAUUCUCGGGUGCCAA` — result for “RBNS enrichment (R)”: 0.68.
`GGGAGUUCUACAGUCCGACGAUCUGCCGUACUGCAUCAUCAUUUGUUUUCUUUGUAGACACUGAAAUCCUAUCAGGAGGAUUCCUUCACAAUGUAUUUUAUUUGCUAGACUUUGGUUGGGAGGGAAAAGGACAUGGAAUUCUCGGGUGCCAA` — result for “RBNS enrichment (R)”: 1.
Under “RBNS enrichment (R)”, `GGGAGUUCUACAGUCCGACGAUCCCAUUCAGGAUCGCUACGGUUCUUAAUCCUGGUGCCAGGCUGUCCAACCUGGUAAAACUCCACUUCAGAUGGACCUGAGACCACAUCUGGCUGCGCCAAUGCCCCAGCUGUGGAAUUCUCGGGUGCCAA` is recorded as 0.217.
`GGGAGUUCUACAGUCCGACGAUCAGACCCUCUUCCCUUUGCCCUUCUCCUCCAAUACAUAAAGGACACAGACAAGGAACUUGCUGAAAGGCCAACCAUUUCAGGAUCAGUCAAAGGCAGCAAGCAGAUAGACUUGGAAUUCUCGGGUGCCAA` — result for “RBNS enrichment (R)”: 0.171.
`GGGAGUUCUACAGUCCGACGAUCUGUCUGACAUCCCUGGAGAGGCUACGCUGUUCCAGGUGGCACUGGGAUGCCAGUUGGCAGCUGGAUCCUUCUGUUCACACGACUUGGAACCUUUUGUCCUUUGGGGCUGGUGGAAUUCUCGGGUGCCAA`: “RBNS enrichment (R)” 0.254.

Block 3
Target: Histone acetyltransferase KAT6A, winged helix 1, GST fusion (KAT6A, Homo sapiens, UniProt Q92794, residues 1-85)
Method: protein binding microarray
Form: double-stranded DNA, one strand shown
Medium: in vitro
Concentration: not given
Setting: 8-mer, flanks averaged, mean of 2 arrays, mostly near background
Reference: not given
Direction: higher = stronger binding
Target sequence (chain): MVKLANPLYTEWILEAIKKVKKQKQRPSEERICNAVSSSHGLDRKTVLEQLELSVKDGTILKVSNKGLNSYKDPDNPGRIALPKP
`GCCAGTCA` has an E-score of -0.155.
The E-score of `CTCCTTTC` is reported as 0.0483.
`GCAATGCC` gave an E-score of 0.141.
For `ACCGGCGG`, the E-score was 0.471.
With `ACTAGGCA` the E-score was -0.0626.
`CCTCGCCG` has an E-score of 0.299.
The E-score of `AAAAGGAC` is reported as -0.162.
`ACAATCAC` has an E-score of -0.112.
The E-score of `CGTCGAAC` is reported as -0.0426.
`CTCAATAA` has an E-score of -0.218.
The E-score of `CGGAGCTA` is reported as -0.118.
`AGGTGGTA` has an E-score of -0.0346.
The E-score of `ACGTCAGA` is reported as -0.252.
`GAGCATGA` has an E-score of -0.143.
With `ACTAGCTC` the E-score was -0.089.
For `CGTCGGAA`, the E-score was 0.328.
For `CCGTATTC`, the E-score was 0.195.
`ACCCAAGT` gave an E-score of -0.243.
With `GATGGCAC` the E-score was 0.0209.
`CTAGGGTA` gave an E-score of -0.08.
`ACCGTTGA` has an E-score of -0.0113.
The E-score of `AACCGGCC` is reported as 0.316.
With `AAGAGGAA` the E-score was -0.207.
For `AGACCGGG`, the E-score was 0.0921.

Block 4
Target: CCND1, cyclin fold, Cln2 fusion (human)
Method: yeast growth competition, sequencing
Medium: yeast
Setting: weak parent motif
Reference: not given
Direction: higher = stronger binding
Parent: PKMYT1 docking peptide (human); SFEPRNLLSLFED; partner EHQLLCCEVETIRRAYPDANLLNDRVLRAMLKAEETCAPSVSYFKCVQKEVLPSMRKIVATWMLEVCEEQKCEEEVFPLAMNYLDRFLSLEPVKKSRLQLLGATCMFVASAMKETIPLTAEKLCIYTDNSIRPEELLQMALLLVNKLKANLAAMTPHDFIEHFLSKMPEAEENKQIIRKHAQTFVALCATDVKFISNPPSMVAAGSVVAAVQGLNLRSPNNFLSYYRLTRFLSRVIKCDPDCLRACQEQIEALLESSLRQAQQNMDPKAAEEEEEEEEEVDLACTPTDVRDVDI
`MFEPRNLLSLFED [S1M]`: “normalised enrichment score” 0.274.
For `EFEPRNLLSLFED [S1E]`, “normalised enrichment score” read 0.651.
`CFEPRNLLSLFED [S1C]`: “normalised enrichment score” 0.596.
Under “normalised enrichment score”, `SFEPRNLLSLFET [D13T]` is recorded as 0.693.
For `SFDPRNLLSLFED [E3D]`, “normalised enrichment score” read 0.935.
Under “normalised enrichment score”, `SFKPRNLLSLFED [E3K]` is recorded as 0.304.
For `SFAPRNLLSLFED [E3A]`, “normalised enrichment score” read 0.23.
`SFEPRNLLSLFEC [D13C]` — result for “normalised enrichment score”: 1.56.
`SFEPRNLLSCFED [L10C]`: “normalised enrichment score” 0.715.
`SQEPRNLLSLFED [F2Q]` — result for “normalised enrichment score”: 0.834.
`SFEPRNLLSLAED [F11A]` — result for “normalised enrichment score”: 0.367.
For `SSEPRNLLSLFED [F2S]`, “normalised enrichment score” read 0.24.
For `SFEPRELLSLFED [N6E]`, “normalised enrichment score” read 0.691.
`SFEPRQLLSLFED [N6Q]`: “normalised enrichment score” 1.08.
`SFEPRNLLSDFED [L10D]`: “normalised enrichment score” 1.04.
Under “normalised enrichment score”, `SFEPRNWLSLFED [L7W]` is recorded as 1.07.
`SEEPRNLLSLFED [F2E]` — result for “normalised enrichment score”: 0.473.
Under “normalised enrichment score”, `SFERRNLLSLFED [P4R]` is recorded as 1.55.

A few entries again (block 3):
`GCCAGTCA` has an E-score of -0.155.
`ACCCAAGT` gave an E-score of -0.243.
With `ACTAGGCA` the E-score was -0.0626.
